Experimental data pooled from the literature.
A part holds a random share of what one study measured. Several values in a cell are separate wells, animals, samples, runs or records.
UniProt Q9Y2I7, sequence (whole entry, looked up): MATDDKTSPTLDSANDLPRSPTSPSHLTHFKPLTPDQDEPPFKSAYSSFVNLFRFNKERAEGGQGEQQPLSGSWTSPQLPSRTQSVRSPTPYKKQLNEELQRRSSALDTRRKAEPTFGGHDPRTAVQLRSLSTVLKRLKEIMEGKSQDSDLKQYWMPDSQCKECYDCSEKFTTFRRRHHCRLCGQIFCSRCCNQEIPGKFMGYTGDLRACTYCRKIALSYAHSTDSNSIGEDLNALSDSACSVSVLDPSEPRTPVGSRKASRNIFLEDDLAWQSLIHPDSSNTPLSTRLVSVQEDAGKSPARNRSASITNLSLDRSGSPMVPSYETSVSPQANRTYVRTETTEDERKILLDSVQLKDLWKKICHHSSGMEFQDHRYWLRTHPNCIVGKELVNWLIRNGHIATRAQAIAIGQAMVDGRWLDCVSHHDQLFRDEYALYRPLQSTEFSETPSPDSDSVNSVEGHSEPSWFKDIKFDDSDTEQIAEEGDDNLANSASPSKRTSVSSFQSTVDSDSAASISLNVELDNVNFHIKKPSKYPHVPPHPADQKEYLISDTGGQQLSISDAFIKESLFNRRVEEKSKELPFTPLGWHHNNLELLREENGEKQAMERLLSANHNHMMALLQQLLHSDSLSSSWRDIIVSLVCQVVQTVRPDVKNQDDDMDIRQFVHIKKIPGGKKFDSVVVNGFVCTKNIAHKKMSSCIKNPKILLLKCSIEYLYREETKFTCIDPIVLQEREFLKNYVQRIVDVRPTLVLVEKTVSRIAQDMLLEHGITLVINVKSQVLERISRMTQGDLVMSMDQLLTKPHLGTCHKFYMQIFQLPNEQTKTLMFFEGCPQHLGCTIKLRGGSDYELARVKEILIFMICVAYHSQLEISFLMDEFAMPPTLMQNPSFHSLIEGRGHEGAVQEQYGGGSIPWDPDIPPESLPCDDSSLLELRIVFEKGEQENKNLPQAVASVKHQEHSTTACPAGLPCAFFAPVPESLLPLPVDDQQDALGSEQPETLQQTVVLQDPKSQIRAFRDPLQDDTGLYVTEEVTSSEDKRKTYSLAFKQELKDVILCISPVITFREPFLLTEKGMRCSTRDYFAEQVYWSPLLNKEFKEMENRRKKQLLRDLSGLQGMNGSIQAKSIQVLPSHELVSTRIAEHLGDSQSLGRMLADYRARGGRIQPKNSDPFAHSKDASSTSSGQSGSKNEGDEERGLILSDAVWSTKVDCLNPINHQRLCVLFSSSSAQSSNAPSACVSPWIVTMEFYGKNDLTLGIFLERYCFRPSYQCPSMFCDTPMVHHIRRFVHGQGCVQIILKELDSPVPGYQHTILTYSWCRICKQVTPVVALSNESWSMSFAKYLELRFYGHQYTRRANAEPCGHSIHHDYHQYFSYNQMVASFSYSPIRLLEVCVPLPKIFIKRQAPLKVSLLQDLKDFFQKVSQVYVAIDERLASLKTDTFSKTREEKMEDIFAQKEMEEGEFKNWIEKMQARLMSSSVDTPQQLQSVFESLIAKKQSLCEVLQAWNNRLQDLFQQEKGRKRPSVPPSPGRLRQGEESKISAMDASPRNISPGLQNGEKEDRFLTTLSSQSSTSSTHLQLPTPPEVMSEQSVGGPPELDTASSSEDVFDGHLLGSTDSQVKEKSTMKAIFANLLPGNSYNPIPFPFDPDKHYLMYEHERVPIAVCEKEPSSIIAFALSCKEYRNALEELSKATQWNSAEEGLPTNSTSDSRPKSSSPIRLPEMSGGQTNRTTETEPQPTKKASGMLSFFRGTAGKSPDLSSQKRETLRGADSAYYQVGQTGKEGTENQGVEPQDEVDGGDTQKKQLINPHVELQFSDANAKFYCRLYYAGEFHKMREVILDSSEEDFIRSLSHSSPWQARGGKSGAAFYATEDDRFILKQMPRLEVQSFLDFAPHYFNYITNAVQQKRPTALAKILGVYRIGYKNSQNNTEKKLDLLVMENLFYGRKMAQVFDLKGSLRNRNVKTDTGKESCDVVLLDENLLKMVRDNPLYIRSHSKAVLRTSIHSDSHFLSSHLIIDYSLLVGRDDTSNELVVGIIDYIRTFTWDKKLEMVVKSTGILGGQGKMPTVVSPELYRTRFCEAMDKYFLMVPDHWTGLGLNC

Study 1
Compound: Cc1ccc(O)c(C)c1-c1cnc2[nH]c(-c3ccc(N4CCN(C)CC4)nc3C)nc2c1
Target: Membrane-associated tyrosine- and threonine-specific cdc2-inhibitory kinase (PKMYT1, Homo sapiens, UniProt Q99640)
Target sequence (Q99640 1-499): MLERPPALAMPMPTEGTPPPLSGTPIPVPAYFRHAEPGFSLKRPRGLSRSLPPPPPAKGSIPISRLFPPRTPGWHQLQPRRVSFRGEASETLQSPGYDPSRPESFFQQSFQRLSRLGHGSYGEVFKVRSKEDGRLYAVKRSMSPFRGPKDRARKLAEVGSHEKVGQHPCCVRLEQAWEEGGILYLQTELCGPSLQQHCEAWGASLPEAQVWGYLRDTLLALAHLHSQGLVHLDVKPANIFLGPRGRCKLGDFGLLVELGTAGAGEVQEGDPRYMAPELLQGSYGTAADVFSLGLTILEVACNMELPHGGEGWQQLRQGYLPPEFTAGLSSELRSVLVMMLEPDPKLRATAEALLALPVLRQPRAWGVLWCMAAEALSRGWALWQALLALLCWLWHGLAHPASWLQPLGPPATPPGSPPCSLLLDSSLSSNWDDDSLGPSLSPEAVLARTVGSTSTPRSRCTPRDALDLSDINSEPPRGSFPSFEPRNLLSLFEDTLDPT
effect on	technique	tested at	inhibition [%]
		0.1235 µM	25.8
		3.333 µM	90.9
		10 µM	96.3
		1.111 µM	85.5
cell-free assay	TR-FRET	3.333 µM	92.4
		0.3704 µM	50.3
cell-free assay	TR-FRET	0.3704 µM	57
cell-free assay	TR-FRET	1.111 µM	80.4

Study 2
Structure (SMILES): COc1cc(C(=O)OCCCN2CCCN(CCCOC(=O)c3cc(OC)c(OC)c(OCc4ccc([N+](=O)[O-])cc4)c3)CC2)cc(OC)c1OC
Target: Equilibrative nucleoside transporter 1 (SLC29A1, Homo sapiens, UniProt Q99808, del243-274/L168F/N288K/P175A)
UniProt Q99808, sequence (whole entry, unmodified, looked up): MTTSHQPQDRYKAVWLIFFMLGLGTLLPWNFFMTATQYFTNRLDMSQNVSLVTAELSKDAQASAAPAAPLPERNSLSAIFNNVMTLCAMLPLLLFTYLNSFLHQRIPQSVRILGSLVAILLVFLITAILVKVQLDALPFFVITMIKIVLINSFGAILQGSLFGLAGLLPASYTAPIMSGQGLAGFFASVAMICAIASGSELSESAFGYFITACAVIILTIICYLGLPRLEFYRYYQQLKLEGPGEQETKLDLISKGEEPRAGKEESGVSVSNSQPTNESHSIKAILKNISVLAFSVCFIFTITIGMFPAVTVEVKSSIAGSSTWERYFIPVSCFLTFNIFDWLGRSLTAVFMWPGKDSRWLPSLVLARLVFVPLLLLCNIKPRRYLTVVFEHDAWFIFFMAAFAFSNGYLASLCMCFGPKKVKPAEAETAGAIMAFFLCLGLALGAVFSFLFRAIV
Mode: competitor
Technique: scintillation proximity
tested at	[3H]NBMPR binding
19.22 nM	87% and 72.7% and 87.2% and 70.2% and 74.1% and 94.7%
4.354 nM	99.1% and 94.6% and 85.1% and 98.8% and 99.2% and 108%
0.6238 nM	90.6% and 107% and 102%
2204.72 nM	6.62% and 8.01% and 7.87% and 7.4% and 7.32% and 10.8%
236.2 nM	26.7% and 32.5% and 36.4% and 29.5% and 36.5% and 34.1%

Study 3
Target: Sodium-dependent neutral amino acid transporter B(0)AT1 (SLC6A19, Homo sapiens, UniProt Q695T7)
UniProt Q695T7, sequence (whole entry, looked up): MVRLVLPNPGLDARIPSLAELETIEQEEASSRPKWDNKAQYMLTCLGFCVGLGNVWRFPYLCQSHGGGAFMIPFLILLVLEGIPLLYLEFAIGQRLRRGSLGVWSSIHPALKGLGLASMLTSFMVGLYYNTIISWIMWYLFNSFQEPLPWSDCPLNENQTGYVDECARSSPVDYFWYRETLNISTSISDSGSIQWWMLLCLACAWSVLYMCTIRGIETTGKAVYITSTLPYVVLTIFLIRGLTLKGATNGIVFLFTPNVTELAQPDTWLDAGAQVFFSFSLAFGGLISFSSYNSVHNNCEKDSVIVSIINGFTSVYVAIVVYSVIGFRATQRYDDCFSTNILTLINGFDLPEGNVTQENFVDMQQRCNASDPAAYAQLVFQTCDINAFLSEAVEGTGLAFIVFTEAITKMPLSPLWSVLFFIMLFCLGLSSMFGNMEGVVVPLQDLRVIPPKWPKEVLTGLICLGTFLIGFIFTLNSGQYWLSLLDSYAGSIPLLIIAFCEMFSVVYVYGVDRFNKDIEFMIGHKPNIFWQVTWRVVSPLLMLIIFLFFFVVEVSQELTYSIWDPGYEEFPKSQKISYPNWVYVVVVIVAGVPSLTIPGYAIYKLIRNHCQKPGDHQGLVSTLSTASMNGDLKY
Effect on: membrane potential
Technique: FLIPR membrane potential
Cells: CHO-BC cells
Tested at: concentration not given
Setting: first screen
Relative to: uninhibited control
Structure (SMILES)	normalised transport activity
CCCCCCCCNC(=O)COc1cc(C)c(Cl)c(C)c1	0.979 and 1.06 and 0.921 and 0.929 and 1.18
Cc1cc(OCC(=O)NC(C)(C)C)cc(C)c1Cl	1.1 and 1.09 and 1.15 and 1.02 and 1.13
Cc1cc(OCC(=O)NCCCO)cc(C)c1Cl	0.968 and 1.2 and 1.14 and 0.875 and 1.07 and 0.922 and 1.04 and 0.942
CCC(C)NC(=O)COc1cc(C)c(Cl)c(C)c1 (racemic)	0.901 and 1.14 and 0.94 and 1.16 and 1.13
Cc1cc(OCC(=O)NCc2ccccc2)cc(C)c1Cl	0.92 and 0.848 and 1.07 and 0.945
Cc1cc(OCC(=O)NC(C)C)cc(C)c1Cl	0.666 and 0.779 and 0.683 and 0.643
Cc1cc(OC(C)C(=O)NC(C)C)cc(C)c1Cl (racemic)	0.893 and 0.814 and 0.969 and 0.913
CON(C)C(=O)COc1cc(C)c(Cl)c(C)c1	1 and 1.24 and 0.89 and 0.949

Single results of other studies
SMILES	target or system	test	system	conditions	how to read	measurement	value
Ic1ccc(Nc2nc(NCCc3c[nH]c4ccccc34)nc(N3CCOCC3)n2)cc1	PIKFYVE (Homo sapiens, UniProt Q9Y2I7)	KINOMEscan		123 nM, unit not given	relative to: DMSO	remaining binding	0.059 and 0.0548 and 0.0482 and 0.0334
Cn1cc(-c2cccc(CN3CCC4(CC3)COc3c4ccc4c3CN([C@H]3CCC(=O)NC3=O)C4=O)c2)cn1			cynomolgus monkeys	intravenous, 1.00 mg/kg		steady-state volume of distribution	8.15 L/kg

A few entries again (study 2):
tested at	[3H]NBMPR binding
0.6238 nM	90.6% and 107% and 102%
2204.72 nM	6.62% and 8.01% and 7.87% and 7.4% and 7.32% and 10.8%
